Literature values that unrelated publications cite.
Protocols differ between the studies behind these lines. ± gives the spread as reported.
Chain of UniProt Q9JLB5 (whole entry, looked up): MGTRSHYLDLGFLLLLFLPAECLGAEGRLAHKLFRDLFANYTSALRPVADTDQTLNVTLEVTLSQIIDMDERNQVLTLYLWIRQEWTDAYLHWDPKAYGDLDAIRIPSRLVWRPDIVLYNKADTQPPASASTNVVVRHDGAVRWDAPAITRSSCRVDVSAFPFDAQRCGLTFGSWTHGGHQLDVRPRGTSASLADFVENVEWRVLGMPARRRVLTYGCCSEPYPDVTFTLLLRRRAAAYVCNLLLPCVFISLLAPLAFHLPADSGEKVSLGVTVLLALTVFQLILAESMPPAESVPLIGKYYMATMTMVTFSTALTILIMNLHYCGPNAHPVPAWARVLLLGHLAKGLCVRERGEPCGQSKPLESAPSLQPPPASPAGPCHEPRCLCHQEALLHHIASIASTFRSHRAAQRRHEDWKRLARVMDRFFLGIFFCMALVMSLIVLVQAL
Chain of UniProt P04789 (whole entry, looked up): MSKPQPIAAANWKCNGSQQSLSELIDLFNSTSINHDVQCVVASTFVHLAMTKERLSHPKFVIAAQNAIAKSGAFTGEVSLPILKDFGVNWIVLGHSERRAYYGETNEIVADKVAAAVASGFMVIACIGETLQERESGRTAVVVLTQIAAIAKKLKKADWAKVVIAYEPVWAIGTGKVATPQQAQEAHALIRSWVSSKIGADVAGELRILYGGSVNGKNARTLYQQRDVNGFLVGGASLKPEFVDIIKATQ
Chain of UniProt P43144 (whole entry, looked up): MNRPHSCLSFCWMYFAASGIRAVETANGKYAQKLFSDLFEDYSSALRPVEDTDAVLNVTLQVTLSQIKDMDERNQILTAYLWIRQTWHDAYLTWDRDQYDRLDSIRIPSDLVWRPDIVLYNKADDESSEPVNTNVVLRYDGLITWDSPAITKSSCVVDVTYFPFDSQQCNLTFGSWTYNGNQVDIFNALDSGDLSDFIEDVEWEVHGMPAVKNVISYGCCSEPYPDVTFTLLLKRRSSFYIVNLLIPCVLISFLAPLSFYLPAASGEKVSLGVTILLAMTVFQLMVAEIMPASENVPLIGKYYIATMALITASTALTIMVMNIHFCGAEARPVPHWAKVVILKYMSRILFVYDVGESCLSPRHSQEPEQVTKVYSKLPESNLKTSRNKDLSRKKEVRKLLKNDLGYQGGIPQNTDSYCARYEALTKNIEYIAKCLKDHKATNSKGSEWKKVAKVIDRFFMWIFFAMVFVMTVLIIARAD

`N=c1c2c(-c3ccccc3)c(-c3ccccc3)n(Cc3ccccc3)c2ncn1[C@H]1CC[C@H](O)CC1` gave a Vdss of 16.9 L/kg (mouse; intravenous, 3 mg/kg).
`Nc1ncnc2c1ncn2[C@@H]1O[C@H](COP(=O)(O)OP(=O)(O)OP(=O)(O)O)[C@@H](O)[C@H]1O` gave a pKa4 of 7.1 (phosphate ionisation; aqueous solution).
For `CN1CCc2[nH]c3ccccc3c2CC1.O=C(O)/C=C/C(=O)O`, the Hill coefficient was 2 ± 0.2 (Nicotinic acetylcholine receptor alpha9/alpha10 (Rattus norvegicus, UniProt P43144+Q9JLB5); inhibitor; added: 100 µM acetylcholine).
The Km of `O=C[C@H](O)COP(=O)(O)O` is reported as 320 µM (Triosephosphate isomerase, glycosomal (Trypanosoma brucei brucei, UniProt P04789); substrate; pH 8.9).
`CNC(=O)c1cccc(-c2ccc3c(N4CCOC[C@@H]4C)nc(N4CCOC[C@@H]4C)nc3n2)c1` — result for “maximum tolerated dose”: 50 mg (human; twice daily).
`Clc1cc2c(cc1Cl)Oc1cc(Cl)c(Cl)cc1O2` gave an EC50 of 0.0188 ± 0.00678 µM (common carp AHR; reporter gene, agonist; Cyprinus carpio).
For `VGNVYVKF`, the IC50 was 1.06 µM (HLA class I histocompatibility antigen, A alpha chain, allele A*26:01 (Homo sapiens, UniProt P04439); peptide-MHC binding; peptide).
For `CC1(C)CCC(c2ccc(Cl)cc2)=C(CN2CCN(c3ccc(C(=O)NS(=O)(=O)c4ccc(N[C@H](CCN5CCOCC5)CSc5ccccc5)c(S(=O)(=O)C(F)(F)F)c4)cc3)CC2)C1`, “patients with stable disease” read 23% (patients with relapsed SCLC; 325 mg daily, single agent).
